{"data": "Measured values gathered from unrelated publications", "note": "Protocols differ between the studies behind these lines."}
{"SMILES": "Nc1nc2c(ncn2COCCO)c(=O)[nH]1", "organism": "vesicular stomatitis virus", "test": "viral cytopathic effect", "test system": "HEL", "EC50": "> 250 µM"}
{"SMILES": "NC(=O)c1ncn([C@@H]2O[C@H](CO)[C@@H](O)[C@H]2O)n1", "organism": "Influenza A virus (H1N1)", "test": "antiviral activity", "test system": "MDCK", "EC50": "2.3 to 3.4 µM"}
{"SMILES": "Cc1ccc2c(c1)/C(=N/NC(=O)N/N=C1\\C(=O)Nc3ccc(C)cc31)C(=O)N2", "organism": "vesicular stomatitis virus", "test": "viral replication", "test system": "HeLa", "EC50": "> 100 µM"}
{"SMILES": "CC1SC2(CCC(c3ccccc3)CC2)N(NC(=O)Cc2csc3nc(-c4ccc(Br)cc4)cn23)C1=O (stereo not shown)", "organism": "vesicular stomatitis virus", "test": "viral cytopathic effect", "test system": "HEL", "EC50": "> 100 µg/mL"}
{"SMILES": "Nc1ncnc2c1ncn2C[C@H](O)CO", "organism": "vesicular stomatitis virus", "test": "viral replication", "test system": "HeLa", "EC50": "> 250 µM"}
{"SMILES": "O=C(Cc1csc2nc(-c3ccc(Br)cc3)cn12)NN1C(=O)CSC12CCC(c1ccc(O)cc1)CC2 (stereo not shown)", "organism": "vesicular stomatitis virus", "test": "viral cytopathic effect", "test system": "HEL", "EC50": "> 100 µg/mL"}
{"SMILES": "Cc1ccc(S(=O)(=O)N2C(=O)CSC2c2ccccc2O)cc1 (stereo not shown)", "organism": "influenza B virus", "test": "viral cytopathicity, visual CPE scoring", "test system": "MDCK, B/Ned/537/05", "EC50": "> 100 µM"}
{"SMILES": "O=C(Cc1csc2nc(-c3ccc(Br)cc3)cn12)NN1C(=O)CSC12CCC(c1ccccc1)CC2 (stereo not shown)", "organism": "vesicular stomatitis virus", "test": "viral cytopathic effect", "test system": "HEL", "EC50": "> 100 µg/mL"}
{"SMILES": "Cc1ccc(S(=O)(=O)N2C(=O)CSC2c2ccccc2[N+](=O)[O-])cc1 (stereo not shown)", "organism": "influenza B virus", "test": "viral cytopathicity, visual CPE scoring", "test system": "MDCK, B/Ned/537/05", "EC50": "> 100 µM"}
{"SMILES": "Nc1nc(O)c2ncn(COC(CO)CO)c2n1", "organism": "vesicular stomatitis virus", "test": "viral cytopathic effect", "test system": "HEL", "EC50": "> 100 µM"}
{"SMILES": "Cc1ccc(S(=O)(=O)N2C(=O)CSC2c2ccc(C(C)C)cc2)cc1 (stereo not shown)", "organism": "influenza B virus", "test": "viral cytopathicity, visual CPE scoring", "test system": "MDCK, B/Ned/537/05", "EC50": "> 100 µM"}
{"SMILES": "O=[N+]([O-])NC1=NCCN1Cc1ccc(Cl)nc1", "organism": "Folsomia candida", "test": "reproduction, OECD 232", "test system": "LUFA 2.2 soil", "conditions": "28 days", "EC50": "0.25 mg/kg dry soil"}
{"SMILES": "O=C(N/N=C1\\C(=O)Nc2ccc([N+](=O)[O-])cc21)N/N=C1\\C(=O)Nc2ccc([N+](=O)[O-])cc21", "organism": "vesicular stomatitis virus", "test": "viral replication", "test system": "HeLa", "EC50": "> 100 µM"}
{"SMILES": "Cc1ccc(S(=O)(=O)N2C(=O)CSC2c2ccccc2)cc1 (stereo not shown)", "organism": "influenza B virus", "test": "viral cytopathicity, visual CPE scoring", "test system": "MDCK, B/Ned/537/05", "EC50": "> 100 µM"}
{"SMILES": "O=C1Nc2ccccc2/C1=N/NC(=S)N/N=C1\\C(=O)Nc2ccccc21", "organism": "vesicular stomatitis virus", "test": "viral replication", "test system": "HeLa", "EC50": "> 100 µM"}
{"SMILES": "Cc1ccc(S(=O)(=O)N2C(=O)CSC2c2ccccc2F)cc1 (stereo not shown)", "organism": "influenza B virus", "test": "viral cytopathicity, visual CPE scoring", "test system": "MDCK, B/Ned/537/05", "EC50": "> 100 µM"}
